Measurements collected from several papers.
Protocols differ between the studies behind these lines. “And” joins repeats or separate records; there may be more than shown. ± gives the spread as reported.
NTSR1: Neurotensin receptor type 1 (NTSR1, Homo sapiens, UniProt P30989)
Sequence of UniProt P30989 (whole entry, looked up): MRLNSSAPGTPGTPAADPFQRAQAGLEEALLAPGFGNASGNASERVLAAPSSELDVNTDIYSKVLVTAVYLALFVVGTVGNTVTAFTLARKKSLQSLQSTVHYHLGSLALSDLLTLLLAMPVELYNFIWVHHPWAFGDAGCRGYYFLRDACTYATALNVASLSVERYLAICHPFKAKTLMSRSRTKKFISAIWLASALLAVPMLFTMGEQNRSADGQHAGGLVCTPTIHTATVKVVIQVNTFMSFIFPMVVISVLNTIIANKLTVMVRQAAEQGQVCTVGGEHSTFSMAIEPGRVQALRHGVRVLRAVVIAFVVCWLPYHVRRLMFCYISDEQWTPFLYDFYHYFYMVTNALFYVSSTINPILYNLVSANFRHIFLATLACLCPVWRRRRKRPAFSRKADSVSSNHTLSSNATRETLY
C3ar1: C3a anaphylatoxin chemotactic receptor (C3ar1, Mus musculus, UniProt O09047)
Sequence of UniProt O09047 (whole entry, looked up): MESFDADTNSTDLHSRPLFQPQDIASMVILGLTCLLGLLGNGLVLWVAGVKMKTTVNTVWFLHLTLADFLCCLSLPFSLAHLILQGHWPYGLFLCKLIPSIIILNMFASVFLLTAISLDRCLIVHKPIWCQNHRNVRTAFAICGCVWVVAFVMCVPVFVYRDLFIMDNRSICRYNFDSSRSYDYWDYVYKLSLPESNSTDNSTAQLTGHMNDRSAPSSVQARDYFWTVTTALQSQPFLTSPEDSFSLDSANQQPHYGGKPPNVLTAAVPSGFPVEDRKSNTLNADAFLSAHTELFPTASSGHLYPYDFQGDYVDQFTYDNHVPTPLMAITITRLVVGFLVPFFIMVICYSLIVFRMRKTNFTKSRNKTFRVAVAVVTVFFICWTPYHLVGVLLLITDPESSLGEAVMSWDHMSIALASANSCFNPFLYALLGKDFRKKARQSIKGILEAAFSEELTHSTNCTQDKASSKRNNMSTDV
ppa: Inorganic pyrophosphatase (ppa, Escherichia coli, UniProt P0A7A9)
Sequence of UniProt P46089 (whole entry, unmodified, looked up): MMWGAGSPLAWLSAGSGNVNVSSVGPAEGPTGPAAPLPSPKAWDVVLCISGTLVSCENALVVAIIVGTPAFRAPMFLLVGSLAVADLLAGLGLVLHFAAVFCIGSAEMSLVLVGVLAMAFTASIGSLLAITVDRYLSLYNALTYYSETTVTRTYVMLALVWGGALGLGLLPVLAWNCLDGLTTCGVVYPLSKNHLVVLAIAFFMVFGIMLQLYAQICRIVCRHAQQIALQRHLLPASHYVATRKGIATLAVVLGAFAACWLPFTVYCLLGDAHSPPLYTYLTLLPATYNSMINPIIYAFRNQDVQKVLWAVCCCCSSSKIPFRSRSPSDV
Sequence of UniProt P0A7A9 (whole entry, looked up): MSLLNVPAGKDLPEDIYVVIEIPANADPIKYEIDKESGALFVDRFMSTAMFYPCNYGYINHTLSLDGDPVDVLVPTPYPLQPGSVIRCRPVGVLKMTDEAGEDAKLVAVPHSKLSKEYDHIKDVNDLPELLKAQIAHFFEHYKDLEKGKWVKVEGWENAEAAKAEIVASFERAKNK
Sequence of UniProt P10686 (21-1215, looked up): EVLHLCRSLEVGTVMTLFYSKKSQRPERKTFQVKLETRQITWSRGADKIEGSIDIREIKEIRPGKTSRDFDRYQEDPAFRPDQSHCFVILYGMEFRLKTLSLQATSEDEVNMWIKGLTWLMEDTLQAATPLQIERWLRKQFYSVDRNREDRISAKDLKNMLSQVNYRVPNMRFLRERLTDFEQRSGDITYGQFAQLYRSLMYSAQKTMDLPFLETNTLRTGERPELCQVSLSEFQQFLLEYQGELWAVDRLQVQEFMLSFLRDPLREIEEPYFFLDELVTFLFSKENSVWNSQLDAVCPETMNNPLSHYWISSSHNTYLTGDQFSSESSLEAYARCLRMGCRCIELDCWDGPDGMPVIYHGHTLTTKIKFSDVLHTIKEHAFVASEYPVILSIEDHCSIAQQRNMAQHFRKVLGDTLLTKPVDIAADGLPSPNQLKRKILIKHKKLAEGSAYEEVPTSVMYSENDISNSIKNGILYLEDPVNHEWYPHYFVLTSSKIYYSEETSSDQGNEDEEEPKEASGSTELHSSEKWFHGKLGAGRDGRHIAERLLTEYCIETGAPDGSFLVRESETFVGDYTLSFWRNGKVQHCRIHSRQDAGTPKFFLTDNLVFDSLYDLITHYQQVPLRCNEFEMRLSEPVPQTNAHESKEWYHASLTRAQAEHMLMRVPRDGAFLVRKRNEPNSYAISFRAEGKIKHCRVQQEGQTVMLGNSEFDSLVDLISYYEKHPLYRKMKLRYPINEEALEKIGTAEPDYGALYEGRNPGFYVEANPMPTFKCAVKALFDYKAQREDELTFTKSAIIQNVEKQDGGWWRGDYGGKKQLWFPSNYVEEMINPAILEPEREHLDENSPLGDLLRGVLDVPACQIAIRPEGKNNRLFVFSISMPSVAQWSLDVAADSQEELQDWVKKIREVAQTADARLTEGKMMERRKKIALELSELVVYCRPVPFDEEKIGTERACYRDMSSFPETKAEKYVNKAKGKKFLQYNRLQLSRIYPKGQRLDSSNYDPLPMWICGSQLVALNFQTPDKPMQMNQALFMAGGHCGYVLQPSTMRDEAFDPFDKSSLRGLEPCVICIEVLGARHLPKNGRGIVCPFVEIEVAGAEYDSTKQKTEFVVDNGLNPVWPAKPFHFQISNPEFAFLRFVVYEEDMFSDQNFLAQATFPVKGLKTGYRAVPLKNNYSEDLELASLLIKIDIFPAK
Sequence of UniProt A7T1N0 (whole entry, unmodified, looked up): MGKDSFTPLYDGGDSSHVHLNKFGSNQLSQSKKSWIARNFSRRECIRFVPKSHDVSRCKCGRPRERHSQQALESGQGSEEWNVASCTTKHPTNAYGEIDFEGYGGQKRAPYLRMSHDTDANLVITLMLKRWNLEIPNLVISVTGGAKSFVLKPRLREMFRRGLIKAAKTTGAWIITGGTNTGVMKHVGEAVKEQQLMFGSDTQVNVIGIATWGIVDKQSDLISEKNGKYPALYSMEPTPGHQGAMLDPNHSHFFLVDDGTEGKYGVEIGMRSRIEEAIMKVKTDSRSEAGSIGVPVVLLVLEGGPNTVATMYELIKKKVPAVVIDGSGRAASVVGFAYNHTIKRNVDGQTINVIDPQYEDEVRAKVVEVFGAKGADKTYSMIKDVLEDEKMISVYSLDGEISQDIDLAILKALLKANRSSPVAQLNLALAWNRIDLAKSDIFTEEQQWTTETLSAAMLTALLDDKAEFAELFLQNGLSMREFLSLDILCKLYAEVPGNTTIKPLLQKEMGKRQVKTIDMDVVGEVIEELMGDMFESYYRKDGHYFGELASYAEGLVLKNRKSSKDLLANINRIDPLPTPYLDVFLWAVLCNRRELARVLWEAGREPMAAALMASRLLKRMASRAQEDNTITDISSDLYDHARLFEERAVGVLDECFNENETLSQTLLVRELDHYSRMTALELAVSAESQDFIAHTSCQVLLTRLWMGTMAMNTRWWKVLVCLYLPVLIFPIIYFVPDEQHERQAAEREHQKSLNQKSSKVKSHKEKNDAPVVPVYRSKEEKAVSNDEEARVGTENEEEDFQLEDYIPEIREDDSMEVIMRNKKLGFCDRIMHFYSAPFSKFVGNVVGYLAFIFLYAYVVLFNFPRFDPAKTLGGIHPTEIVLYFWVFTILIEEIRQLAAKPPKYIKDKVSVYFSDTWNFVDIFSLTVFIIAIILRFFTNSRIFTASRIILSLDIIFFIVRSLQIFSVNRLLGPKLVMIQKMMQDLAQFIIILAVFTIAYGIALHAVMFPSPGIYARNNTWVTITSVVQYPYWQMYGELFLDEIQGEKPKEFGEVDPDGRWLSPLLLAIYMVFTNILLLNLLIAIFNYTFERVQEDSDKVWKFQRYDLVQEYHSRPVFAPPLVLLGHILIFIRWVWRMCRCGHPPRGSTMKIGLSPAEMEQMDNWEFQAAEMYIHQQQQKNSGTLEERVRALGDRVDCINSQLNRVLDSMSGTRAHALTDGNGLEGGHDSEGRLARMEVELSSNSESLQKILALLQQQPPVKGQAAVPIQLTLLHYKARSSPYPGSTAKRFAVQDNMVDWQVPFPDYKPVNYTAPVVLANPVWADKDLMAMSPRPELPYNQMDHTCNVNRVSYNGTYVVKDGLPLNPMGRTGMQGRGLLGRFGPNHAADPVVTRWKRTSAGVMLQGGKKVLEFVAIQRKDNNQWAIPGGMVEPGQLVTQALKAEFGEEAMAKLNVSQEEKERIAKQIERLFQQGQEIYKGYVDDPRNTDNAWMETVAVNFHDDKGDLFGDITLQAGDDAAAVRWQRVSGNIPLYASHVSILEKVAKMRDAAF
Sequence of UniProt Q92847 (whole entry, looked up): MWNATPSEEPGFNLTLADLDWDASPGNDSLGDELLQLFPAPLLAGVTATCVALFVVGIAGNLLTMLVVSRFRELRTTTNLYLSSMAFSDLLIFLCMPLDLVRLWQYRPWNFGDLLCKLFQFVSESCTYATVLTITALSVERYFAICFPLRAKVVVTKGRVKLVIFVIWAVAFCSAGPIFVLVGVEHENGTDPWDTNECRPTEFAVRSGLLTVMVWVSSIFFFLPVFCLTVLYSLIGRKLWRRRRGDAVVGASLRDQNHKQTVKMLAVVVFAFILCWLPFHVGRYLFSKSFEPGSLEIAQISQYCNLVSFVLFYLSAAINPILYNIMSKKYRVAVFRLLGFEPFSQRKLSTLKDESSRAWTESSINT
Sequence of UniProt Q9Y2T6 (whole entry, looked up): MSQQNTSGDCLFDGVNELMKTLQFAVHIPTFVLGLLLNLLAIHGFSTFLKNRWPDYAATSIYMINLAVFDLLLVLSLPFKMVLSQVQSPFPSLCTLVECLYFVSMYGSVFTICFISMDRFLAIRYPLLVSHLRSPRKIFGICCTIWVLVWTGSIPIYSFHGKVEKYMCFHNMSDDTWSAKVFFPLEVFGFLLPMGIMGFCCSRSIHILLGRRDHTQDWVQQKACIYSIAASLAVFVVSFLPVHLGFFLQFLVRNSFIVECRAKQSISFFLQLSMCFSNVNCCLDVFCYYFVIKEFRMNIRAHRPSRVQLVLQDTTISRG

SMILES	target	assay	test system	conditions	quantity	value
COc1ccccc1C1CCN(c2nc(C3CC3)nc3c(N(C)CCO)cccc23)CC1	NTSR1	β-arrestin recruitment, agonist	–	–	EC50	~54500 µM
CC(C)C[C@H](NC(=O)[C@@H](N)[C@@H](C)O)C(=O)N[C@@H](CCC(N)=O)C(=O)N1CCC[C@H]1C(=O)N1CCC[C@H]1C(=O)N[C@@H](C)C(=O)N[C@@H](CO)C(=O)N[C@@H](CO)C(=O)N[C@@H](CCCNC(=N)N)C(=O)N[C@@H](CCCNC(=N)N)C(=O)N[C@@H](CCCNC(=N)N)C(=O)N[C@@H](Cc1c[nH]cn1)C(=O)N[C@@H](Cc1ccccc1)C(=O)N[C@@H](Cc1c[nH]cn1)C(=O)N[C@@H](Cc1c[nH]cn1)C(=O)N[C@@H](C)C(=O)N[C@@H](CC(C)C)C(=O)N1CCC[C@H]1C(=O)N1CCC[C@H]1C(=O)N[C@@H](C)C(=O)N[C@@H](CCCNC(=N)N)C(=O)O	C3ar1	beta-arrestin 1 recruitment, agonist, NanoBiT	mouse	–	EC50	0.105 µM
N[C@@H](Cc1c[nH]c2ccc(OCc3ccc(-c4ccccc4)cc3)cc12)C(=O)O	SLC7A5 (Homo sapiens, UniProt Q01650)	leucine uptake	HT-29	added: [3H]-L-leucine	EC50	19.2 µM
C/C(=C/CC[C@@H](C)[C@H]1CC[C@@]2(C)C3=C([C@@H](O[C@@H]4O[C@H](CO)[C@@H](O)[C@H](O)[C@H]4O)C[C@]12C)[C@@]1(C)CCC(=O)C(C)(C)[C@@H]1CC3)C(=O)O	TAS2R46 (Homo sapiens, UniProt P59540)	calcium signal, agonist, fluorescence	–	–	EC50	1.5 µM
CCCn1c(=O)c2cc(F)ccc2n2c(=S)[nH]nc12	1-phosphatidylinositol 4,5-bisphosphate phosphodiesterase gamma-1, residues 21-1215 (Rattus norvegicus, UniProt P10686)	enzyme activity, activator	lipid vesicles	15 min preincubation, added: XY-69 substrate 0.5 µM	EC50	12 µM
CCCCCCCC/C=C\CCCCCCCC(=O)NCCO	Trpv1 (Mus musculus, UniProt Q704Y3, S511T)	ion current, agonist, whole-cell patch clamp	–	24 °C, S511T, +80 mV	EC50	0.36 ± 0.22 µM
COc1ccccc1C1CCN(c2nc(C3CC3)nc3ccc(N(C)CCO)cc23)CC1	NTSR1	β-arrestin recruitment, agonist	–	–	EC50	6.76 µM
COc1cc2nc(C3(C)CC3)nc(N3CCC(c4ccccc4OC)CC3)c2cc1OC	NTSR1	β-arrestin recruitment, agonist	–	–	EC50	7.56 µM
CC(C)C[C@H](NC(=O)[C@H](C)NC(=O)[C@H](CO)NC(=O)[C@@H]1CCCN1C(=O)[C@@H]1CCCN1C(=O)[C@H](CCC(N)=O)NC(=O)[C@H](CC(C)C)NC(=O)[C@@H](N)[C@@H](C)O)C(=O)N[C@@H](CCCNC(=N)N)C(=O)N[C@@H](CCCNC(=N)N)C(=O)N[C@@H](CCCNC(=N)N)C(=O)N[C@@H](Cc1c[nH]cn1)C(=O)N[C@@H](Cc1ccc(O)cc1)C(=O)N[C@@H](Cc1c[nH]cn1)C(=O)N[C@@H](Cc1c[nH]cn1)C(=O)N[C@@H](C)C(=O)N[C@@H](CC(C)C)C(=O)N1CCC[C@H]1C(=O)N1CCC[C@H]1C(=O)N[C@@H](CO)C(=O)N[C@@H](CCCNC(=N)N)C(=O)O	C3ar1	beta-arrestin 2 recruitment, agonist, NanoBiT	mouse	–	EC50	0.617 µM
C[N+]1(Cc2ccc3ccccc3c2)CCN(CCCN2c3ccccc3Sc3ccc(Cl)cc32)CC1	ppa	inhibitor, counter-screen, coupling enzyme alone	–	–	IC50	54.6 µM
COc1cc(C2C(NC(=O)c3ccc(NC(=O)OC(C)(C)C)cc3)(C(=O)O)C(c3ccc(OC(=O)c4cccs4)c(OC)c3)C2(NC(=O)c2ccc(NC(=O)OC(C)(C)C)cc2)C(=O)O)ccc1OC(=O)c1cccs1 (stereo not shown)	GLP1R (Homo sapiens, UniProt P43220, V194A)	cAMP, agonist	–	–	EC50	0.0105 µM
COc1ccccc1C1CCN(c2nc(C3(F)CCCC3)nc3ccc(N(C)CCO)cc23)CC1	NTSR1	β-arrestin recruitment, agonist	–	–	EC50	13.1 µM
Nc1ncnc2c1ncn2[C@@H]1O[C@H](COP(=O)(O)OP(=O)(O)OC[C@H]2OC(O)[C@H](O)[C@@H]2O)[C@@H](O)[C@H]1OP(=O)(O)O (stereo partly shown)	TRPM2 (Nematostella vectensis, UniProt A7T1N0, R156C)	agonist	–	–	EC50	0.032 ± 0.002 µM
CC(C)Oc1cc(Cl)ccc1CNc1cc(-c2ccccc2)nc2ncnn12	GPR3 (Homo sapiens, UniProt P46089, M156A)	cAMP level, agonist, GloSensor	–	receptor M156A mutant	EC50	2.09 µM and 1.35 µM and 0.933 µM and 1 µM
COc1ccc(OC)c(C2=Nn3c(nnc3-c3ccccc3)SC2)c1	ppa	enzyme activity, inhibitor	–	–	IC50	> 100 µM
O=c1ccn([C@@H]2O[C@H](COP(=O)(O)CP(=O)(O)O)[C@@H](O)[C@H]2O)c(=S)[nH]1	P2Y purinoceptor 14 (P2RY14, Homo sapiens, UniProt Q15391)	calcium mobilisation, agonist	cells with Gαqi5	receptor mutant Wt	EC50	0.24 ± 0.066 µM
COc1ccccc1C1CCN(c2nc(C3(F)CCC3)nc3c(Cl)cc(N(C)CCO)cc23)CC1	NTSR1	β-arrestin recruitment, agonist	–	–	EC50	3.47 µM
O=C(Cc1ccc(OCc2ccccc2)cc1)NC1(C(=O)O)CCN(C(=O)c2ccc(-c3cccc(Cl)c3)cc2)CC1	GPR55 (Homo sapiens, UniProt Q9Y2T6)	cAMP, agonist, luciferase	–	–	EC50	> 10 µM
Cc1cc(C)cc([C@@H]2CCCN2Cc2ccc(Oc3ccc(C(N)=O)cc3F)cc2)c1	OPRK1 (Homo sapiens, UniProt P41145, I135L)	agonist	–	–	EC50	0.29 µM
CC(C)[C@H](NC(=O)[C@@H]1CSSC(C)(C)[C@H](NC(=O)[C@@H](N)CC(=O)O)C(=O)N[C@@H](Cc2ccccc2)C(=O)N[C@H](Cc2c[nH]c3ccccc23)C(=O)N[C@@H](CCCN)C(=O)N[C@@H](Cc2ccc(O)cc2)C(=O)N1)C(=O)O	UTS2R (Homo sapiens, UniProt Q9UKP6)	Gq activation, agonist, BRET2	HEK293	10 min	EC50	0.0063 ± 0.0017 µM
COc1ccccc1C1CCN(c2nc(C3(C(F)(F)F)CC3)nc3ccc(N(C)CCO)cc23)CC1	NTSR1	β-arrestin recruitment, agonist	–	–	EC50	3.37 µM
COc1ccc(C(=O)c2c(C(=O)NCCCN(C)C)oc3ccc(Cl)cc3c2=O)cc1OC	GHSR (Homo sapiens, UniProt Q92847)	calcium signal, agonist	–	–	EC50	0.0398 µM
